# Measured values pooled from the literature.
# Each numbered part is a random draw from the data of one study; scales do not carry over between parts. Substitutions count along the parent as printed.

# Block 1 — method: DHFR PCA, dose-response; sample: yeast; notes: Hill fit, mean, not affinity; with: (+)-ABA, dose series; direction: lower = more sensitive
# Target: ABI1, truncated, D143A, DHFR fusion (Arabidopsis thaliana, UniProt P49597)
# Parent: PYL1, truncated, DHFR fusion (Arabidopsis thaliana, UniProt Q8VZS8); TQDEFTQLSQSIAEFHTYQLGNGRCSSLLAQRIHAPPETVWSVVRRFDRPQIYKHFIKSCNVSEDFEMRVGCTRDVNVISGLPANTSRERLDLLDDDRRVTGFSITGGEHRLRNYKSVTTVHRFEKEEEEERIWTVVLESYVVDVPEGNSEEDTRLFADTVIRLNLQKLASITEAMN
Change,ABA EC50 [µM]
I57F,390
G102K,72.2
Q167T,1.59
T135V,85.6
L169C,260
Y53P,401
N22G,2.8
V70S,17.6
E139G,546
E130N,2.76
R32F,3.52
R132L,2.46
V136L,2.07
E139R,632

# Block 2 — method: RNA Bind-n-Seq; form: RNA; sample: in vitro; concentration: 365 nM; relative to: no-protein control; direction: higher = stronger binding
# Target: RNA binding protein fox-1 homolog 2, RRM domain, GST-SBP tag (RBFOX2, Homo sapiens, UniProt O43251-10, residues 100-194)
# Notes: natural RNA segment, single round, ends assumed
# Shared flanks, not repeated: GGGAGUUCUACAGUCCGACGAUC … UGGAAUUCUCGGGUGCCAA
Strand,RBNS enrichment (R)
GUGGAAUAGGGAACUGUAAUGGCCACUGAAGCACGUGAGAGACCCUCGCAAAAUGAUGUGAAAGGACCAGUUUCUUGAAGUCCAGUGUUUCCACGGCUGGAUACCUGUGU,0.419
ACCCUCUGCCCAGGGAGUCCUUGCGUCCCAUGAGGUCUUCCCGCAAGGCCUCUCAGACCCAGAUGUGACGGGGUGUGUGGCCCGAGGAAGCUGGACAGCGGCAGUGGGCC,0.39
GGUUUGUAUAUGUGGUGAAUUCCUGCAAGAACAGUGCAUUUGUAUUAGAAAUGUAAGUUUUAAGGAUGGCCUUGUUGCCUUCUAUCAAGUUCUCUGGGACUUUGUAAUUU,0.913
UGGAGUCAAAACACUUGUAAUUUUGUAUCUUGAUGUCUUUGUUAAGACUGCUGAAGAAUUAUUUUUUUUCUUUUAUAAUAAGGAAUAAACCCCACCUUUAUUCCUUCAUU,0.502
AACCUGGCCGUCUACACAGCCCUUCUGCAACCUCACGACCGGAUCAUGGGGCUGGACCUGCCCGAUGGGGGCCAGCUCACCCACGGCUACAUGUCUGACGUCAAGCGGAU,0.687
AGUACUUGGCAGGGCAGCAGCAAUCUUGCUGUGUUUGAUAUAACAUGCAUCCUUGGGCAGGUUGCCCUUAAAUCUUACACUGUGGUGAAGGGAUGUUUUUUUUGUAAUGC,0.803
CAUCUCCAGGGCCUUGACCUCACUGGACUGUGACUGUCCUCAGGACACCUGCCCCUCCUCACCUAACGGACUGCAGGGCUGAGCAUGUGUCUGAGGUCACACUCUCUGCC,0.433
UCUAUUCACACUAUGCUUCCUAGAGACAGAACAAAAAUCAUGUAGGGAAAUUGGGGCUAAUGAGAUCAGUGCCAAAUUUCAGCAGAUACCUGUGAGGCUGACACCUGUUG,0.873

# Block 3 — method: RNA Bind-n-Seq; form: RNA; sample: in vitro; concentration: not given; relative to: input RNA pool; direction: higher = stronger binding
# Target: RING finger protein unkempt homolog, zinc fingers 1-6, GST-SBP tag (UNK, Homo sapiens, UniProt Q9C0B0, residues 30-357)
# Notes: RNA with constant flanks, human and mouse sites, ends assumed
# Shared flanks, not repeated: GGGAGUUCUACAGUCCGACGAUC … CAACAGAGGAUUGAGCAUCA
# Target sequence (chain): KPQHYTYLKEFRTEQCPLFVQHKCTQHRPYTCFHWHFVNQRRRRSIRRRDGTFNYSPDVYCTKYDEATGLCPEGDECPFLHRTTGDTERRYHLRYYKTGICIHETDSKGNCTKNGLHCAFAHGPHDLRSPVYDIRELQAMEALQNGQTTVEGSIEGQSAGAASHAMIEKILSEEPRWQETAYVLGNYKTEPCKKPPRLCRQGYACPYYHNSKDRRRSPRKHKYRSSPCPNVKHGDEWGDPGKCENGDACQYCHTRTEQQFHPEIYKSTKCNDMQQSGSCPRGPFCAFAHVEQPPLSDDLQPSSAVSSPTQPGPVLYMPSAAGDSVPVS
Strand,bound/input enrichment [ratio]
AUGGAGAAGGAUUCUCUGCCCCGCUUUGUGCGCUCUGAAUUUUAUAAGGAGCUAAUCAAGUAGUCAUCUGGUCAGGCUUCCAAAAGUUGCCCUGUGAGUUGAGUUACAUCCUUUGUAGCA,0.176
UUCCGACAGUUUAUACUGGUUAUGAAUGCUUUAGAUAACAGAGCUGCCCGAAACCAUGUUAAUAGAAUGUGCCUGGCAGCUGAUGUUCCUCUUAUUGAAAGUGGAACAGCUGGGUAUCUU,0.161
GGCAUUUCACCUGAAGAAAAAUUUGUUAUUACAACAACAAGUAGGAAAGAAAUUACCUGUGAUAAUUUUGAUGAAACUGUUAAAGAUGGAGUCACCUUAUACCUGCUACAGUCGGUCAAU,0.38
CAUGUUUAUAAUGUGCACAGAAAAAGCUUGAGAAUGAUAAUUUUGGUUUAAAUGUGCUGGUUAGUUGAUGUUAUGACUACUUUAAAUUUUAAGGAUUGUGACACACUCCUACUAUUGAAA,0.479
CCACAGACUUAUAAAGAACAUUUAGAAGGACAGAAACAUAAAAAAAAAGAAGCUGCAUUGAAAGCCUCACAAAAUACCAGCAGCAGCAACAGUUCUACUCGUGGGACUCAAAAUCAGCUA,1.02
UUGUUCAUUGCUAAGUUCCUGUCUGACUUUAUUGUAACUUCUGAAAGGCUAGAUUUCCUCUCUGCUCUUCUCUUCAGCAAUAGGGAAAGAAAAUGGACUUGAGAGUGUCCGGUGAAGGCU,0.667
GUGAAGAACACCAUCUACUGUAACGUGGAGCCAUCGGAAUCCAAUAUGCGCUGGGCACCGGAGUUCAUGAUUGACACUCUGGAGAACCCUGCCGCUCACACUUUCACCUACACGGGGCUC,0.073
UUGCAGGGAAUGGGCUACAUACCAUCUGCCAGCAUGACCCGGCUCGCCCGAUCACGAACCCACUCCACCUCAAGUAGCAUUGGCUCUGGAGAAAGUCCCUUUAGCAGGUCUGUGACCAGC,0.127

# Block 4 — method: protein binding microarray; form: double-stranded DNA, one strand shown; sample: in vitro; concentration: not given; relative to: not given; direction: higher = stronger binding
# Target: Histone acetyltransferase KAT6A, winged helix 1, GST fusion (KAT6A, Homo sapiens, UniProt Q92794, residues 1-85)
# Notes: 8-mer, flanks averaged, mean of 2 arrays, mostly near background
# Construct (chain): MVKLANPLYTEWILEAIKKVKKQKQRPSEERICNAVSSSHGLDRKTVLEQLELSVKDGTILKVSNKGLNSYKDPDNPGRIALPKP
Strand,E-score
AGGTGAGC,-0.0487
TGTTATAA,0.00611
ACCAGGTC,0.0858
AACAAGGC,-0.174
ACGTGTGG,-0.237
AGACATGA,-0.105
GTCCTGGA,-0.164
TCGTCTCA,-0.0916
AGGGCGCG,0.286
GATGACTA,-0.00513
CCTCGCTA,0.0788
CTGCAAAG,-0.175
CAATTCCG,0.215
AGACGCGC,0.388
CGAAACAA,-0.123

# Block 5 — method: protein-binding microarray; form: double-stranded DNA, one strand shown; sample: in vitro; concentration: 250 nM; notes: 60-bp whole probe; with: salmon DNA 0.4 mg/ml; relative to: random background probes; direction: higher = stronger binding
# Target: Interferon regulatory factor 5, full length, phosphomimetic (IRF5, Homo sapiens, UniProt Q13568-2, residues 1-514, K96S/S451D/S453D/S456D/S462D)
Strand,log fluorescence [z-score]
GCCTAGCACGACGATTTCAATTCCGAGACGTGCTAGGTCTTGATTCGCTTGACGCTGCTG,0.812
GCCTAGCACTTAGGTTTCGGGAATCGGTTAGTGCTAGTCTTGATTCGCTTGACGCTGCTG,7.33
GCCTAGCACGACGGTATCGGGTTTCGGGATGTGCTAGTCTTGATTCGCTTGACGCTGCTG,5.11
GCCTAGCACTGGGCTGTGGGTTTGAGTCTGTGCTAGGTCTTGATTCGCTTGACGCTGCTG,-0.476

# Some of these lines once more (block 2):
Strand,RBNS enrichment (R)
UCUAUUCACACUAUGCUUCCUAGAGACAGAACAAAAAUCAUGUAGGGAAAUUGGGGCUAAUGAGAUCAGUGCCAAAUUUCAGCAGAUACCUGUGAGGCUGACACCUGUUG,0.873
GGUUUGUAUAUGUGGUGAAUUCCUGCAAGAACAGUGCAUUUGUAUUAGAAAUGUAAGUUUUAAGGAUGGCCUUGUUGCCUUCUAUCAAGUUCUCUGGGACUUUGUAAUUU,0.913
CAUCUCCAGGGCCUUGACCUCACUGGACUGUGACUGUCCUCAGGACACCUGCCCCUCCUCACCUAACGGACUGCAGGGCUGAGCAUGUGUCUGAGGUCACACUCUCUGCC,0.433
GUGGAAUAGGGAACUGUAAUGGCCACUGAAGCACGUGAGAGACCCUCGCAAAAUGAUGUGAAAGGACCAGUUUCUUGAAGUCCAGUGUUUCCACGGCUGGAUACCUGUGU,0.419
ACCCUCUGCCCAGGGAGUCCUUGCGUCCCAUGAGGUCUUCCCGCAAGGCCUCUCAGACCCAGAUGUGACGGGGUGUGUGGCCCGAGGAAGCUGGACAGCGGCAGUGGGCC,0.39
UGGAGUCAAAACACUUGUAAUUUUGUAUCUUGAUGUCUUUGUUAAGACUGCUGAAGAAUUAUUUUUUUUCUUUUAUAAUAAGGAAUAAACCCCACCUUUAUUCCUUCAUU,0.502
